Results of several laboratories.
Each line is one published result; not all experiments were run side by side. ± marks the error that the study gave.

SMILES	cell line	assay	setting	how to read	quantity	result
CC/C=C\C/C=C\C/C=C\C/C=C\C/C=C\C/C=C\CCC(=O)Nc1ccn(C2OC(CO)C(O)C2(F)F)c(=O)n1 (stereo not shown)	NCI-H23	NCI60 screen	–	–	TGI	12.7 µM
COc1cc(CNC(=O)C[C@H](C)CCC=C(C)C)ccc1OCc1cn(-c2cccc(C(F)(F)F)c2)nn1	HOP-92	SRB	10 µM, 48 h	–	growth percent	86.1%
O=C1OCC2=C1C(c1cccc(Br)c1)C1=C(N2)C(=O)c2ccccc2C1=O (stereo not shown)	SK-LU-1 cells	PI flow cytometry	0.32 µM, 24 h	–	cells in S phase	5.1%
COc1ccc([C@@H]2CC(=O)c3c(O)cc(O[C@@H]4O[C@H](CO[C@@H]5O[C@@H](C)[C@H](O)[C@@H](O)[C@H]5O)[C@@H](O)[C@H](O)[C@H]4O)cc3O2)cc1O	A549	cell migration, scratch	50 µg/mL, 72 h	–	gap closure	14 ± 0.83%
COc1ccc(CN2C(=O)C(=O)c3cc(NC(C)=O)ccc32)cc1	K562	western blot	1 to 10 µM, 24 h	–	Bcl-2/Bax ratio	decreased
O=Cc1c(O)ccc2ccccc12	HUVEC	RNA sequencing, item: THBD	75 µM, 24 h	baseline: DMSO	log2 fold change	3.06
N=C(N/N=C/c1ccc2ccc3cccc4ccc1c2c34)N/N=C/c1ccc2ccc3cccc4ccc1c2c34	PANC-1	crystal violet	72 h	baseline: IC50 IMR-90 over IC50 PANC-1	selectivity ratio	1.2
CC(C)c1c(-c2cccc3[nH]ccc23)[nH]c(C(=O)O)c1-c1c(Cl)ccc2[nH]ccc12	TEX cells	–	concentration not given	–	CD34-positive cells	26%
COc1cc(CNC(=O)C[C@H](C)CCC=C(C)C)ccc1O	CAKI-1	SRB	10 µM, 48 h	–	growth percent	81.9%
O=C(N1CCCC1)n1cc(-c2ccc(-c3ccccc3)cc2)nn1	mouse T-cells	N-terminal labeled proteins, N-terminal enrichment proteomics, item: LARP4	1 nM, 6 h	baseline: DMSO	SILAC ratio	0.94 ± 0.05
COc1cc(CNC(=O)C[C@H](C)CCC=C(C)C)ccc1OCc1cn(-c2ccc(Br)cc2)nn1	NCI-H322M	SRB	10 µM, 48 h	–	growth percent	99.6%
N=C(N)Nc1ccc2[nH]c(-c3ccc(-c4nc5cc(NC(=N)N)ccc5[nH]4)cc3)nc2c1	sample A patient fibroblasts	MBNL1 exon 5 splicing rescue	–	–	lowest effective concentration	200 µM
CCC(C(=O)O)C1CCC(C)C(C(C)C(O)C(C)C(=O)C(CC)C2OC3(C=CC(NCc4cn(COC(=O)C(C)(C)C)nn4)C4(CCC(C)(C5CCC(O)(CC)C(C)O5)O4)O3)C(C)CC2C)O1 (stereo not shown)	HMLER	cell proliferation	–	baseline: IC50 CD24high/CD44low over IC50 CD24low/CD44high	selectivity ratio	3.1
COc1cc(CNC(=O)C[C@H](C)CCC=C(C)C)ccc1OCc1cn(-c2ccccc2)nn1	SK-MEL-5 melanoma cells	SRB	10 µM, 48 h	–	growth percent	77.4%
CCC(=C(c1ccc(Cl)cc1)c1ccc(OCCN(CC)CC)cc1)c1ccc(OC)cc1	Ishikawa	–	1 µM, 72 h, unit not given	baseline: DMSO	alkaline phosphatase activity	1.89 ± 0.45
CC(=O)OC[C@H]1O[C@@H](Sc2sc(C(=O)c3ccc(Br)cc3)c(N)c2-c2nc3ccccc3s2)[C@H](OC(C)=O)[C@@H](OC(C)=O)[C@@H]1OC(C)=O	KM12	SRB	10 µM, 48 h	baseline: untreated	growth	63.1%
COc1cc(CNC(=O)C[C@H](C)CCC=C(C)C)ccc1OCc1cn(-c2cccc([N+](=O)[O-])c2)nn1	SN12C	SRB	10 µM, 48 h	–	growth percent	96.6%
CCCC(CCC)C(=O)[O][Pt]([NH2])([NH2])([Cl])([Cl])[O]C(=O)C(C)c1ccc(CC(C)C)cc1 (stereo not shown)	PSN1	–	1 µM, 24 h	–	depolarised mitochondria cells	30 to 40%
COCCNCC(=O)N(CCCCN)CC(=O)N(CC(=O)N(CC(=O)N(CCCCN)CC(=O)N[C@@H](CCCCN)C(=O)N[C@H](CCCCN)C(=O)N[C@@H](CCSC)C(=O)NCCCC[C@H](NC(=O)[C@H](CCSC)NC(=O)[C@@H](CCCCN)NC(=O)[C@H](CCCCN)NC(=O)CN(CCCCN)C(=O)CN(C(=O)CN(Cc1ccc2c(c1)OCO2)C(=O)CN(CCCCN)C(=O)CNCCOC)[C@H](C)c1ccccc1)C(N)=O)[C@H](C)c1ccccc1)Cc1ccc2c(c1)OCO2	H358 ALDH− cells	MTS	concentration not given, 24 h	–	viability	no effect

For quick reference, copied from above:
SMILES	cell line	assay	setting	how to read	quantity	result
CCC(=C(c1ccc(Cl)cc1)c1ccc(OCCN(CC)CC)cc1)c1ccc(OC)cc1	Ishikawa	–	1 µM, 72 h, unit not given	baseline: DMSO	alkaline phosphatase activity	1.89 ± 0.45
